Results of several laboratories.
Each numbered part is a random draw from the data of one study; scales do not carry over between parts. Substitutions count along the parent as printed.

Study 1
Molecule: PhoQ, residues 284 288 289 292 302 303 AGCYAI
Method: Sort-seq
Item: YFP reporter
Matrix: E. coli
Setting: PhoQ-PhoP variant library
With: 10 µM Mg2+
Baseline: high Mg2+ state
Direction: higher = stronger signaling
target	fold induction
PhoP, residues 12 14 15 18 19 TQCLL (Escherichia coli, UniProt P23836)	3.42
PhoP, residues 12 14 15 18 19 ICWRQ (Escherichia coli, UniProt P23836)	3.75
PhoP, residues 12 14 15 18 19 VHTVL (Escherichia coli, UniProt P23836)	1.59

Study 2
Target: CCND1, cyclin fold, Cln2 fusion (human)
Method: yeast growth competition, sequencing
Matrix: yeast
Setting: weak parent motif
Baseline: not given
Direction: higher = stronger binding
Starting sequence: RB1 docking peptide (human); PKPLKKLRFDIEG; partner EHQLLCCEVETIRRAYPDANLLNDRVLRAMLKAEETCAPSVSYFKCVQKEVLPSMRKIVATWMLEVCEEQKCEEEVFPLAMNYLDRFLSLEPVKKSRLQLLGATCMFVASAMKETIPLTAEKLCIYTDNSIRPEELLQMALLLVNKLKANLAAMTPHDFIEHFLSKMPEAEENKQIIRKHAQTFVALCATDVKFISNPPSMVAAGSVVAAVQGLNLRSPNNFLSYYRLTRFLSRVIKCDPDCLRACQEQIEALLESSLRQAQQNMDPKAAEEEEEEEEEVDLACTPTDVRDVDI
Change	normalised enrichment score
K2A	0.169
P3K	-0.186
K5I	0.227
R8G	-0.138
P1E	0.0645
K2R	0.243
L7M	-0.181
P1L	-0.579
L4V	-0.0334
D10Y	0.499
L4S	0.459
K6V	0.53
K2F	0.118
P1W	0.175

Study 3
Target: RING finger protein unkempt homolog, zinc fingers 1-6, SBP tag (UNK, Homo sapiens, UniProt Q9C0B0, residues 30-357)
Chain of UniProt Q9C0B0 (30-357, looked up): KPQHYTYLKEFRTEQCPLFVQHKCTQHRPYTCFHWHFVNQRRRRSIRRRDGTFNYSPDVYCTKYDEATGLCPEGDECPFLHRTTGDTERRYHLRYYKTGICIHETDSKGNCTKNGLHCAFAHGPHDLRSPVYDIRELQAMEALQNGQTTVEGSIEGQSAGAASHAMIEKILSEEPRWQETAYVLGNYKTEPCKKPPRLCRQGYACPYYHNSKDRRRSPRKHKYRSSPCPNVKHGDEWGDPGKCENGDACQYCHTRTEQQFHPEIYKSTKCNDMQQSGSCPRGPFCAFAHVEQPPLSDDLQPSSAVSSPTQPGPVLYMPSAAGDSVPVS
Method: RNA Bind-n-Seq
Form: RNA
Matrix: in vitro
Concentration: 100 nM
Setting: RNA with constant flanks, vertebrate orthologous sites, ends assumed
Baseline: input RNA pool
Direction: higher = stronger binding
Constant ends, left off below: GGGAGUUCUACAGUCCGACGAUC … CAACAGAGGAUUGAGCAUCA
Sequence	bound/input enrichment [ratio]
CUGUACUAGCGCCAUACCAGCAUCUGAACUAGACCUCUGUGCACGCCUUUCUUAACCGUCUAGUUACGUUUUUCAGUUCUUUCCAGGACACUGCUUUUCCCAAGACUGAAAAAGCGAGCG	0.576
GCUCUAGUUCUUAAAAACCAACACUCCUAAAAGAGUUAGAAAAAAGUUUACAACGUAAUCUAGUUUACGAAGAAGUCUUGUGCUAAAAUACUUUUGUAAAAGUAUUUUUGAAUACCAUUA	0.589
GUUGUGACCCAUUUAACAUACACAGGAAAGUAUCAAAGAAAAAUUUACGUGCAAUCGACUUAGAUGAUGCAGCUUUUCUAAGUGCCAAGUUUGGAAGACAGUUUGUACCUGGUUGGAAGC	1.11
CUCCACCACCCCUGGGUGCCUGACUCCAGUGAAGCACUCACCAGUGCUGCAAGGGGUCCAGAGUAUUUUUUUUGCUGCUUCAGUCCCCAAUGCCUUCCAGCAGAAGUGGCAGUAGACUGU	0.3
GGGGAUGGGGGGUGGGUAAGGGAUGUGGAUGAUAGGAUGUUAUUGGGAUUUUUAAGUGUUCCGGAGUUUUGUUGUUCUUCCUGUUUUUCUUUUUGUUCUUCCCAUUAAUUAGAUGCACUG	1.59
GUCAUCUGAUUGGAUGAAGACCAUCCCAAGUUACAACCAAACAAACAGCUCCAUGGACUUUAGAAAUUACAUGAUGAGAGAUGAGAAUCUGGAACCACUGCCCCAAAACUGGGAAAUGGC	0.628
GGGACGCUUUGAUAUUAAAUUCGACAUAAAAAGCAGCUGAUUGUAAGCACAACUCUCUCCUAGCCAUUUAAAAAGGUAAAAAACAAAAAAGAAAACCUACUAGUCUUGAACAAACUGUCA	1.25
UUAAAGUUUUUUUUUUUAAUUUAAUUUUUUCCUUUUGGGGGUACAGUUUGCUCUACCAAAUAGUGAUCGUAACAAAUUGAUCUGUUUUGGAUGUUGCUAUAGUGACAUGCAGUUAUAUAU	0.921
UGAGGACUAAUUUGAUUUUCAGUCUCUUUAUCCUUAUUUUAAAAGCCCCCUCUUUUUUAGGCAUAUAUAGUAACAUUAGCAGAAAGAUUUAAUUUGGGCAACUUUUGAUUCUUAAGAGAA	1.85
CCCCUCUGAACCCCAUAUCUUCUGUUUCAUAGUGCAGAGUAUUCUCUUCAGUUAUGUUAUUAGUGGACUUGUUUUAAUUUUAGGGAAACUUUCAGUACAGAUACUGUGAGCUUACAUGGA	1.11
GCAAUGAAAAAGCAGCCCUUCUCCCAGCCCCCCUUUCACUAGGAGUUACAAACGUUCCUAUAGAAGAGCAAUUAAACUCAAUAAAUUUAUCUUUUCAGGAUGAUCCAGACUCCAGUACGA	0.785

Study 4
Target: Centromere-binding protein 1, full length, His-tagged (CBF1, Saccharomyces cerevisiae, UniProt P17106, residues 1-351)
Chain of UniProt P17106 (whole entry, looked up): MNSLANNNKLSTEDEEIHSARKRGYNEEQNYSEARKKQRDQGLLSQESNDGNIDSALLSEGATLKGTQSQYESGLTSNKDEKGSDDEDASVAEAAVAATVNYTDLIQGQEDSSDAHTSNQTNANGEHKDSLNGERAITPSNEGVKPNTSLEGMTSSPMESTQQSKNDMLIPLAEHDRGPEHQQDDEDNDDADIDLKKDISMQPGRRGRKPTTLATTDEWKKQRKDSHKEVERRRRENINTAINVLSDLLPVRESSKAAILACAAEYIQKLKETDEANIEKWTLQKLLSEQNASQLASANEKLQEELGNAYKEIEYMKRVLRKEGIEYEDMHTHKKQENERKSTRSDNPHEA
Method: competition protein-binding microarray
Form: double-stranded DNA, one strand shown
Matrix: in vitro
Concentration: 2 µM
Setting: whole 60-bp probe, lowest competitor level
With: Pho4 competitor, 0.05 µM
Direction: higher = stronger binding
Constant ends, left off below: … GTCTTGATTCGCTTGACGCTGCTG
Sequence	fluorescence intensity [a.u.]
CTTGCTCACTTCTGGCGTGTTCAAGTGGGGATCTGT	70.3
TTGTAAGGCTGTACCCACGTCTTGAAAGGCAATCTG	70.5
TAGAGAGTTGTCCATCACGTTGGACAGGTTGTACTT	183
AAGTGGTTACAAATTCACGTGCTGTGATTGGAAACT	1290
TACTGACAAGATCGGCACGTTCGCCTAACCTGCGGT	64.4
AAATTGGCCACAAGCATCGTGCCGAGCAAATTAAAC	67.4
AGTTGTTGCTCGTCGCTCGTGTAGGACTGTAGTTGC	57
CGTCCTAGTGATTTTCACGTGTCGTCCATGAGGAAG	836
CTTTCCCGATCTTGAATGGTGGGTGTAGCACATTTG	74.9
